Experimental data collected from several papers.
Lines come from different studies, so protocols differ. Values joined by “and” are separate records of one study, mostly repeats; a detail may differ.
Sequence of UniProt Q13547 (whole entry, looked up): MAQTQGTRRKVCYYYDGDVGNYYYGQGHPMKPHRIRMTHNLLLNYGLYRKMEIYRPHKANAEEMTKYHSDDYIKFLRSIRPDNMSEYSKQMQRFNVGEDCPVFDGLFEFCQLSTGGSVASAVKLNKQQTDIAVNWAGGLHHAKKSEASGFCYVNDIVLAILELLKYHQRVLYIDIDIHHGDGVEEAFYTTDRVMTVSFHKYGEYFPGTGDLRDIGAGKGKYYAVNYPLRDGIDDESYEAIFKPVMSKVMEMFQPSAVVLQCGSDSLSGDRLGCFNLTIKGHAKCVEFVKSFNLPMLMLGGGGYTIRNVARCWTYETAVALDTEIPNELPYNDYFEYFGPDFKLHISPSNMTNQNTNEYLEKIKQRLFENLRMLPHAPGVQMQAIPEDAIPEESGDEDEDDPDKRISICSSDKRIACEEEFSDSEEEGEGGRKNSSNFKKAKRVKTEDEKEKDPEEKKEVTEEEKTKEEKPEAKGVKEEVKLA

Structure (SMILES)	tested on	assay	test system	setting	how to read	endpoint	value
C[C@H]1CN(c2n[nH]c3nc(N[C@H]4CC[C@H](NS(=O)(=O)CCC(F)(F)F)CC4)ncc23)CCO1	Histone deacetylase 1 (HDAC1, Homo sapiens, UniProt Q13547)	inhibitor, Kinobeads competition profiling	–	20 µM	baseline: vehicle	relative abundance	1.18
CCCC[C@H](NC(C)=O)C(=O)N[C@@H](CO)C(=O)N[C@H](C(=O)N1CCC[C@H]1C(=O)N[C@@H](C)C(=O)N[C@@H](CCCNC(=N)N)C(=O)N[C@@H](CCCNC(=N)N)C(=O)N[C@@H](CCCNC(=N)N)C(=O)N[C@@H](CC(C)C)C(=O)N[C@@H](CCCC)C(=O)N[C@@H](CCCNC(=N)N)C(=O)N[C@@H](CC(=O)O)C(=O)N[C@@H](Cc1ccccc1)C(=O)N[C@@H](CCCCN)C(=O)N[C@@H](CCCNC(=N)N)C(=O)N[C@@H](CC(C)C)C(=O)N[C@@H](CCC(N)=O)C(N)=O)[C@@H](C)O	proteinase K	LC-MS	–	25 µM, 122.9 min, pH 7.4	–	remaining peptide	0%
CO[C@H]1C[C@@H]2CC[C@@H](C)[C@@](O)(O2)C(=O)C(=O)N2CCCC[C@H]2C(=O)O[C@H]([C@H](C)C[C@@H]2CC[C@@H](OC(=O)NCCOCCOCCOCCOCCOCCOCCOCCOCCC(=O)N3CCc4cc(Cn5nc(-c6ccc7oc(N)nc7c6)c6c(N)ncnc65)ccc4C3)[C@H](OC)C2)C[C@@H](O)[C@H](C)/C=C(\C)[C@@H](O)[C@@H](OC)C(=O)[C@H](C)C[C@H](C)/C=C/C=C/C=C/1C	–	–	patients with advanced solid tumours	intravenous, 16 mg weekly, any grade	–	anaemia incidence	25%
Cc1cc(C(=O)NC(C)(C)COc2cccc3c2C(N)=NS(=O)(=O)N3)cc(C)n1	Salmonella typhimurium	Ames test, initial	TA98	150 µg/plate, together with: rat liver S9	baseline: solvent control	revertant ratio	1.2
O=c1ccc2ccccc2o1	NHEK	oxygen consumption rate, Seahorse	–	concentration not given, 6 h	–	chance response	100%
OCc1ncc2n1-c1ccc(Cl)cc1C(c1ccccc1F)=NC2	CYP3A4 (human)	–	human, plasma	oral, 2 mg midazolam, Day 14, together with: encorafenib at steady state	baseline: 1-hydroxymidazolam over midazolam	metabolite to parent Cmax ratio	22.2
CC(=O)N1CCC(C(=O)N2CCN3C(=O)c4cc(-c5ccccc5)ccc4NC(=O)C3C2)CC1 (stereo not drawn)	Salmonella typhimurium	–	TA1537	1581 µg/plate, together with: rat liver S9	–	revertants per plate	21.5
COc1cccc(-c2n[nH]c(SCc3ccccn3)n2)c1OC	Salmonella typhimurium	Ames test, plate incorporation	TA1537	0.50 mg/plate, with rat liver S9	–	revertant colonies per plate	14
CC(C)(C)c1cc(C=C(C#N)C#N)cc(C(C)(C)C)c1O	Plasmodium falciparum	–	GB4	–	–	IC50	930 nM
Nc1ncnc2c([C@@H]3N[C@H](CO)[C@@H](O)[C@H]3O)c[nH]c12	HeLa	–	–	3.1 µM	–	cell number	5960 and 5100
CN(C)CC[C@@H](c1ccc(Br)cc1)c1ccccn1	Plasmodium falciparum	–	W2	–	–	IC50	794 nM
COc1cc2c(Oc3ccc4[nH]c(C)cc4c3F)ccnc2cc1OCC1(N)CC1	–	refers to: grade 1 or 2 blurred vision	paediatric high-risk refractory sarcoma	8 mg	–	incidence of adverse event	0%

A few entries again:
Structure (SMILES)	tested on	assay	test system	setting	how to read	endpoint	value
CCCC[C@H](NC(C)=O)C(=O)N[C@@H](CO)C(=O)N[C@H](C(=O)N1CCC[C@H]1C(=O)N[C@@H](C)C(=O)N[C@@H](CCCNC(=N)N)C(=O)N[C@@H](CCCNC(=N)N)C(=O)N[C@@H](CCCNC(=N)N)C(=O)N[C@@H](CC(C)C)C(=O)N[C@@H](CCCC)C(=O)N[C@@H](CCCNC(=N)N)C(=O)N[C@@H](CC(=O)O)C(=O)N[C@@H](Cc1ccccc1)C(=O)N[C@@H](CCCCN)C(=O)N[C@@H](CCCNC(=N)N)C(=O)N[C@@H](CC(C)C)C(=O)N[C@@H](CCC(N)=O)C(N)=O)[C@@H](C)O	proteinase K	LC-MS	–	25 µM, 122.9 min, pH 7.4	–	remaining peptide	0%
Nc1ncnc2c([C@@H]3N[C@H](CO)[C@@H](O)[C@H]3O)c[nH]c12	HeLa	–	–	3.1 µM	–	cell number	5960 and 5100
